Measurements from different studies.
Parts stem from different laboratories: compare values within a part only.

Sample 1
Target: Replicase polyprotein 1ab, main protease (rep, Severe acute respiratory syndrome coronavirus 2, UniProt P0DTD1)
Read-out: enzyme activity
Mode: inhibitor
Concentration: 20 µM
`COc1ccc(C(=O)n2nc(-c3ccccc3)nc2N)cc1OC` gave an inhibition of 31.5%.
The inhibition of `O=C(O)/C(S)=C/c1ccc(I)cc1` is reported as -14.6%.
For `O=C(O)C(O)Cc1ccc(O)c(O)c1` (stereo not shown), the inhibition was -9.07%.

Sample 2
Target: Sal-like protein 4, full length isoform A (SALL4, Homo sapiens, UniProt Q9UJQ4, residues 1-1053)
Sequence of UniProt Q9UJQ4 (whole entry, looked up): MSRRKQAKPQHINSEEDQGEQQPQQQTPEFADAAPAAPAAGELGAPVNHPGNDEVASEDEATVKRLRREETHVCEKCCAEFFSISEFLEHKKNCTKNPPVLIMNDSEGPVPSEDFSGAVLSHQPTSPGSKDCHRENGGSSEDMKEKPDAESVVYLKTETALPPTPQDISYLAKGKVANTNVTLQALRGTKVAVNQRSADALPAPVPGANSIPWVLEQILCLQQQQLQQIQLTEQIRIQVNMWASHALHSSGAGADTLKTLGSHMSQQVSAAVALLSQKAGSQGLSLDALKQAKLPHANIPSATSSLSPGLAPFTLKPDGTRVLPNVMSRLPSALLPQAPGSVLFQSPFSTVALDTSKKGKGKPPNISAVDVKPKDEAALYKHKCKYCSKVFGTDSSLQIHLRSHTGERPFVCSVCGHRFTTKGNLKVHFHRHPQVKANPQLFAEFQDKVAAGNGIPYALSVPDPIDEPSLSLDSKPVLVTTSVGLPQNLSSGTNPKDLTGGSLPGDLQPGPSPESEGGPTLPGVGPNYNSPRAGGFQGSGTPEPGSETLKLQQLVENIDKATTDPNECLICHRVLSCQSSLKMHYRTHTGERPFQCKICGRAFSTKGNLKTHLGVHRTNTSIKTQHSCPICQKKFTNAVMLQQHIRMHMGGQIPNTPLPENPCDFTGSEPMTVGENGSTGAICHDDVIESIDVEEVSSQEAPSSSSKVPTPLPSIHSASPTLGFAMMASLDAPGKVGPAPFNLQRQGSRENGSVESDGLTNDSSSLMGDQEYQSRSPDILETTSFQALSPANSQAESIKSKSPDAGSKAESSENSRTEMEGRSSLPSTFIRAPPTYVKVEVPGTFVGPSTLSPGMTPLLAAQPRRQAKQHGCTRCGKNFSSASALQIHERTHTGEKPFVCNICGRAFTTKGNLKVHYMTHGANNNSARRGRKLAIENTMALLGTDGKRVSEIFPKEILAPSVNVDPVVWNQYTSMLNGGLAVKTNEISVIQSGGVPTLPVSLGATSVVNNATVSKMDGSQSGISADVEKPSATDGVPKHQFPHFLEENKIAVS
Method: universal PBM
Form: double-stranded DNA, one strand shown
Medium: in vitro
Concentration: 600 nM
Setting: 8-mer, flanks averaged, mean of replicates
Direction: higher = stronger binding
The E-score of `AAAGGATA` is reported as 0.257.
`AGCAAGTA` gave an E-score of 0.113.
`CAACGATC` has an E-score of -3.5e-05.
`AAACTGCG` gave an E-score of -0.109.
For `GTAATGAC`, the E-score was 0.0649.
The E-score of `CTGGCAGC` is reported as -0.303.
`GAGGTCAC` gave an E-score of -0.305.
For `TATCGTAA`, the E-score was 0.178.

Sample 3
Target: RNA binding protein fox-1 homolog 2, RRM domain, GST-SBP tag (RBFOX2, Homo sapiens, UniProt O43251-10, residues 100-194)
Method: RNA Bind-n-Seq
Form: RNA
Medium: in vitro
Concentration: 365 nM
Setting: natural RNA segment, single round, ends assumed
Reference: no-protein control
Direction: higher = stronger binding
Constant ends, left off below: GGGAGUUCUACAGUCCGACGAUC … UGGAAUUCUCGGGUGCCAA
Construct (chain): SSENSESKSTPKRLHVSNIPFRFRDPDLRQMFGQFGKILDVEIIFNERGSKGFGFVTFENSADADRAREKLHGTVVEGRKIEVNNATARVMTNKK
`UUUGAAGCCCACAGUUUUAGUUGGUACUGACGGAGGGGAGAUUGAGCGAUGCUCUUUCCUUCUCUGUUUAGGAAGAAGUGGUACUAGUGUGGUGUGUUUGCCUGGAAGUC`: “RBNS enrichment (R)” 0.378.
Under “RBNS enrichment (R)”, `GACUCUGGGCCCACAGCGGGGAGGCCAAGAGGGGCCCUGUGGACUUUCACCCAGCACUGUGGGGGCCUUCAGACUCUGGGGCAGCAGACAUGCUGCUUCCCAUCAGCCAG` is recorded as 0.537.
Under “RBNS enrichment (R)”, `UUCUAUUCUAACAAAGUAGUCUUGAGUUUCAUUUCUUAUGCCCCAUGGUAGUGGGAACCAGACCAAUCACAAUGUUUUAUUGAAACAUAUUCCAUCGUUACAGGAUAGCG` is recorded as 0.32.
Under “RBNS enrichment (R)”, `UGUUUGCAGCAUGCCCAAGAUGACCCUGCUCCUGAACCUCUACCUAGCCACUGGUAGAGAGAGGAGAGAACGUGGUAAUGGCAGCAACACUCUAGGCAUGAGAGCACCGG` is recorded as 0.973.
For `UAAAAACUGAACACGAUAACACUUACUCUUAAAUCAAGCAUCAACACUUUUUCCCUGUUAGAAUUCUUUGCAUUUUUGUGUUUGUAACAGAAACGCCUUAAGACACUAUG`, “RBNS enrichment (R)” read 0.818.
Under “RBNS enrichment (R)”, `UUACUUUCUCUUUGGAGGGCGCUGGGACAUACAUCUCUCAAUCCAGCUUCCUCCGCAUCCUCCCAUCUUGCCCCAUUUCUGCCACGUCAGACACUUCCUGAGAGUCUCAC` is recorded as 0.533.
`ACCACUAGUAAGCUUUGUUCAUGCAGCUCAUAGUCCUCCCAAACAUAUGGGGAAUGUGUGUUUAUGUACCAGAUGGGGAGUGUUGAGGGGAUAUGGUGGCUCUGUGAUCU`: “RBNS enrichment (R)” 5.84.
Under “RBNS enrichment (R)”, `UGGCAGUUAAUUCACAGUUACAGAUAAUGCUUUUAUUUACAUAAAUAUACCAAGUAGUACCCUCUUAUUGUAUUCACUUCAUCUAUUUUCUUAGAAUACUUGCAAUUACU` is recorded as 0.737.

Sample 4
Cell line: HEK-293T
Organism: VSV pseudotyped with SARS-CoV-2 spike
Concentration: 10 µM
Time: 16 h
`O=C1CCc2ccc(OCCCCN3CCN(c4cccc(Cl)c4Cl)CC3)cc2N1` gave a pseudovirus infection of 71%.
The pseudovirus infection of `O=P1(N(CCCl)CCCl)NCCCO1` (stereo not shown) is reported as 89.3%.
`CCCN[C@H]1CCc2nc(N)sc2C1` has a pseudovirus infection of 105%.

Sample 5
Target: Replicase polyprotein 1ab, nsp13 helicase (rep, Severe acute respiratory syndrome coronavirus 2, UniProt P0DTD1)
Mode: inhibitor
Concentration: 20 µM
With `O=C(O)CCNc1cc(N2CCc3ccccc3CC2)nc(-c2ccccn2)n1` the inhibition was -0.36%.
The inhibition of `CCC1(c2c[nH]cn2)Cc2ccccc2C1` is reported as 5.31%.
`CC(=O)OCC(=O)[C@@]1(O)CC[C@H]2[C@@H]3CCC4=CC(=O)C=C[C@]4(C)[C@@]3(F)[C@@H](O)C[C@@]21C` gave an inhibition of 5.93%.
`Cc1csc(NC(=O)CSc2ccc(-c3ccccc3)nn2)n1` has an inhibition of 1.96%.
With `O=S(=O)(O)CCS` the inhibition was -0.54%.
`CCN1C[C@H](C)n2c(c(O)c3c(=O)n(Cc4ccc(F)c(Cl)c4)nc(C(=O)NC)c32)C1=O` has an inhibition of 23.5%.
The inhibition of `COc1cc2nc(N3CCCN(C)CC3)nc(NC3CCN(Cc4ccccc4)CC3)c2cc1OC` is reported as 26.4%.
`Cc1cc2c(F)c(Oc3ncnn4cc(OC[C@@H](C)OC(=O)[C@H](C)N)c(C)c34)ccc2[nH]1` has an inhibition of 3.14%.
With `C[N+](C)(C)CCCCCNCC12CC3CC(CC(C3)C1)C2` the inhibition was 0.23%.
For `COc1cc(/C=C/C(N)=O)cc(OC)c1OC`, the inhibition was 4.04%.
With `O=C1c2ccccc2CCC1CNCCc1ccc(O)cc1` (stereo not shown) the inhibition was 7.81%.
`CC(C)C(=O)Nc1ncc(-c2cc(C(F)F)nn2-c2c(Cl)cccc2Cl)s1` has an inhibition of 0.84%.
For `CC(N)Cc1ccc(O)cc1` (stereo not shown), the inhibition was -0.63%.
`NC(=O)c1cn(Cc2c(F)cccc2F)nn1` gave an inhibition of 6.35%.
The inhibition of `O=C(O)c1cccnc1Nc1cccc(C(F)(F)F)c1` is reported as -5.19%.
The inhibition of `NC[C@@H]1CC[C@@H](N)[C@@H](O[C@H]2[C@H](O)[C@@H](O[C@H]3O[C@H](CO)[C@@H](O)[C@H](N)[C@H]3O)[C@H](N)C[C@@H]2N)O1` is reported as 3.87%.
`Cc1nc(N(C)C(=O)Cc2ccc(-c3ccccn3)cc2)sc1S(N)(=O)=O` gave an inhibition of 2.25%.
With `CNC[C@H](O)c1ccc(O)c(O)c1` the inhibition was -0.93%.
`CCOCOC[C@H](C[C@H](C)C(=O)NO)NC(=O)c1ccc(Oc2ccccc2)cc1` has an inhibition of 6.81%.
`CC1(C)CCC(C)(C)c2cc(Cn3cccn3)c(/C=C/c3ccc(C(=O)O)cc3)cc21` gave an inhibition of 18%.
With `CC1(C)Oc2ccc(C#N)cc2[C@H](N(Cc2ncc[nH]2)c2ccc(Cl)cc2)[C@H]1O` the inhibition was 3.81%.
`C=CCc1ccccc1OCC(O)CNC(C)C` (stereo not shown) gave an inhibition of 7.45%.
With `NC(=O)Nc1cc(-c2cccc(F)c2)sc1C(=O)N[C@H]1CCCNC1` the inhibition was 6.86%.
For `COc1ccccc1Oc1c(NS(=O)(=O)c2ccc(C)cn2)nc(-c2ccncc2)nc1OC`, the inhibition was -3.06%.
With `CC(=O)Nc1nc(C)c(-c2ccc(Cl)c(S(=O)(=O)NCCO)c2)s1` the inhibition was 3.28%.

Sample 6
Target: Histone acetyltransferase KAT6A, winged helix 2, GST fusion (KAT6A, Homo sapiens, UniProt Q92794, residues 85-181)
Method: protein binding microarray
Form: double-stranded DNA, one strand shown
Medium: in vitro
Concentration: not given
Setting: 8-mer, flanks averaged, mean of 2 arrays, mostly near background
Reference: not given
Direction: higher = stronger binding
Construct (chain): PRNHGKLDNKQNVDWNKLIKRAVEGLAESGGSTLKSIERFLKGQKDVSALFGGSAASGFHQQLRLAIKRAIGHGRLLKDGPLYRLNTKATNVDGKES
For `TGCTACCA`, the E-score was 0.112.
For `ATCCATGG`, the E-score was -0.153.
For `ATTCCCGG`, the E-score was 0.136.
The E-score of `GAAGCCTC` is reported as 0.0667.
The E-score of `AAACCCAA` is reported as 0.14.
The E-score of `CTATCTCA` is reported as -0.0479.
`ATTTGGTC` gave an E-score of 0.0438.
`TATCATAA` gave an E-score of -0.0372.
